Measured values collected from several papers.
Each numbered part is a random draw from the data of one study; scales do not carry over between parts. “And” joins repeats or separate records; there may be more than shown.
Sequence of UniProt P42336 (whole entry, unmodified, looked up): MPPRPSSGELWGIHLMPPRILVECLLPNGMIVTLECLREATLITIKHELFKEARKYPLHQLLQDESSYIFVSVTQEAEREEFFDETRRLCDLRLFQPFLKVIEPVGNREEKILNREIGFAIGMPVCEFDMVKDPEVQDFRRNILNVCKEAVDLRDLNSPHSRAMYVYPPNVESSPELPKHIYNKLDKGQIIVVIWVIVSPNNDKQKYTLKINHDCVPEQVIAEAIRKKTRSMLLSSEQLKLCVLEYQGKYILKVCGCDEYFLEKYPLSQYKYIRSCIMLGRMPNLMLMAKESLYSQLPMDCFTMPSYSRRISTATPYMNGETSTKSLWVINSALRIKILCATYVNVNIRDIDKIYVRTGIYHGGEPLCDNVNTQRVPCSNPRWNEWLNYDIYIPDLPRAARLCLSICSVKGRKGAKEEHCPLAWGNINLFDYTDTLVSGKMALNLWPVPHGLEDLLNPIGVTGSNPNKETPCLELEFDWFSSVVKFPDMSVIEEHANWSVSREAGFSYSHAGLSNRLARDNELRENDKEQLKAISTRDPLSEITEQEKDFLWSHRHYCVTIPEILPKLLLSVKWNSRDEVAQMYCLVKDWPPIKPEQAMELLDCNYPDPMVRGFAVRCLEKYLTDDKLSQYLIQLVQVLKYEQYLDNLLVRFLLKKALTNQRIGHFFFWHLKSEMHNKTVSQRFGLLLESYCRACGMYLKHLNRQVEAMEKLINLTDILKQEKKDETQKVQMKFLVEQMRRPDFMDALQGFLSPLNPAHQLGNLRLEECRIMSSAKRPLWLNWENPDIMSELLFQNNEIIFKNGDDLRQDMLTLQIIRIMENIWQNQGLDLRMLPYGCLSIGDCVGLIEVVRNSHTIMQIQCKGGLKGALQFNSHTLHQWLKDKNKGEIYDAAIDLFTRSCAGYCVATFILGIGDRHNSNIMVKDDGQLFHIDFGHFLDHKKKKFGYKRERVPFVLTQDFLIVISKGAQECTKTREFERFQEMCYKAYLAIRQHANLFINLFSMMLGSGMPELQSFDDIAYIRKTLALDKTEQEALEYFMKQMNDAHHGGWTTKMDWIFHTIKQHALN
Sequence of UniProt Q06418 (whole entry, looked up): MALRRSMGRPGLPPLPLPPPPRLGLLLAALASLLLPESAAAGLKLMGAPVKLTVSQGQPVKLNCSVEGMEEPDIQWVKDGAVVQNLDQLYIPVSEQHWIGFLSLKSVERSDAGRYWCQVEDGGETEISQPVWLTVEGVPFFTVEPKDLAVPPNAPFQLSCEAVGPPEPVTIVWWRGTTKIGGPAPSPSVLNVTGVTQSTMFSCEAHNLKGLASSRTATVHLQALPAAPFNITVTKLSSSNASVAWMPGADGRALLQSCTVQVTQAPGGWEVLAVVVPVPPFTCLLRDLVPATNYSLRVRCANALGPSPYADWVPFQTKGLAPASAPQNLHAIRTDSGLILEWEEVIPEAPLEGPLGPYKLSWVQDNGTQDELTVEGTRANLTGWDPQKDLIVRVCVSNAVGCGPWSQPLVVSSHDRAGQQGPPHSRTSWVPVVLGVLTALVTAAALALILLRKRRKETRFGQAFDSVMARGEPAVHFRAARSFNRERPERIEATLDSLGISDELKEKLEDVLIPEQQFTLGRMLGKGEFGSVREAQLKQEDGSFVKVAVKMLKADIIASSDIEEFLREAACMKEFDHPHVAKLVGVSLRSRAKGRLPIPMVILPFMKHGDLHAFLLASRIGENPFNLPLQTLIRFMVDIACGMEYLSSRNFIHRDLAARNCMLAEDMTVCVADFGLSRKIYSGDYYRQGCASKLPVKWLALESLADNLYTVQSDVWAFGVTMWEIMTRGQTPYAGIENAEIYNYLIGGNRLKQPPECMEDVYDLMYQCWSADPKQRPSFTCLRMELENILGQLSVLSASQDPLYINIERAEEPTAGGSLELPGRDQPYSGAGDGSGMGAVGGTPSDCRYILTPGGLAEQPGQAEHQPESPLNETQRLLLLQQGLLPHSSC
Sequence of UniProt Q9UIK4 (whole entry, looked up): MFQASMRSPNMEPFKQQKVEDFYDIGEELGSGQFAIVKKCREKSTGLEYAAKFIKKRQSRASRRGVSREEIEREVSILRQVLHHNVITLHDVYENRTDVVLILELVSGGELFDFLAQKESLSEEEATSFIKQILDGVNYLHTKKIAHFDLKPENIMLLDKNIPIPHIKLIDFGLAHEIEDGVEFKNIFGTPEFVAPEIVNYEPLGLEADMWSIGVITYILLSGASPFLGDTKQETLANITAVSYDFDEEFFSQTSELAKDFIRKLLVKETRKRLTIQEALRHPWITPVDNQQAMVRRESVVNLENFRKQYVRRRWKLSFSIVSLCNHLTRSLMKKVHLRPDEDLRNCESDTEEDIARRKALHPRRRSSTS
Sequence of UniProt P15056 (whole entry, looked up): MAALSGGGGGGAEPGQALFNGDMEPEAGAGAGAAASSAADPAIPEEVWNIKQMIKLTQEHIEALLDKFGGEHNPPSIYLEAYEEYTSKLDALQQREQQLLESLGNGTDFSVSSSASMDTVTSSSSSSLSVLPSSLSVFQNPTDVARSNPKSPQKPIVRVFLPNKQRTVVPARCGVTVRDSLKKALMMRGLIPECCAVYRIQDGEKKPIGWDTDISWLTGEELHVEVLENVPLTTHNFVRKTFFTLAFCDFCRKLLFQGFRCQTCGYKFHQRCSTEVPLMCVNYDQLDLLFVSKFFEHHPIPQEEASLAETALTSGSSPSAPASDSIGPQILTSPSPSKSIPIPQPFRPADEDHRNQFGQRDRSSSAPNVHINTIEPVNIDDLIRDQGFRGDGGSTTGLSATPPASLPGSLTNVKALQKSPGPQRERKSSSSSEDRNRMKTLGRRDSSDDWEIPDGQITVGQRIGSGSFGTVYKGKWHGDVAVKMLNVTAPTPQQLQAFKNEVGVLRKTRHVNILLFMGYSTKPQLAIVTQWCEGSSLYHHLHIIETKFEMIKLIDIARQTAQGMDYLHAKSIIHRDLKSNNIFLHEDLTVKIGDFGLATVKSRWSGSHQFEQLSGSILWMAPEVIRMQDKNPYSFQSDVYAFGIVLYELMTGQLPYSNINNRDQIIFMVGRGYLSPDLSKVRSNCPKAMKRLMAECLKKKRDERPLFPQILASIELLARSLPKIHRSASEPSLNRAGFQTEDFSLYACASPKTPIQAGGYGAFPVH

Block 1
Target: Ribosomal protein S6 kinase alpha-5 (RPS6KA5, Homo sapiens, UniProt O75582)
Sequence of UniProt O75582 (whole entry, looked up): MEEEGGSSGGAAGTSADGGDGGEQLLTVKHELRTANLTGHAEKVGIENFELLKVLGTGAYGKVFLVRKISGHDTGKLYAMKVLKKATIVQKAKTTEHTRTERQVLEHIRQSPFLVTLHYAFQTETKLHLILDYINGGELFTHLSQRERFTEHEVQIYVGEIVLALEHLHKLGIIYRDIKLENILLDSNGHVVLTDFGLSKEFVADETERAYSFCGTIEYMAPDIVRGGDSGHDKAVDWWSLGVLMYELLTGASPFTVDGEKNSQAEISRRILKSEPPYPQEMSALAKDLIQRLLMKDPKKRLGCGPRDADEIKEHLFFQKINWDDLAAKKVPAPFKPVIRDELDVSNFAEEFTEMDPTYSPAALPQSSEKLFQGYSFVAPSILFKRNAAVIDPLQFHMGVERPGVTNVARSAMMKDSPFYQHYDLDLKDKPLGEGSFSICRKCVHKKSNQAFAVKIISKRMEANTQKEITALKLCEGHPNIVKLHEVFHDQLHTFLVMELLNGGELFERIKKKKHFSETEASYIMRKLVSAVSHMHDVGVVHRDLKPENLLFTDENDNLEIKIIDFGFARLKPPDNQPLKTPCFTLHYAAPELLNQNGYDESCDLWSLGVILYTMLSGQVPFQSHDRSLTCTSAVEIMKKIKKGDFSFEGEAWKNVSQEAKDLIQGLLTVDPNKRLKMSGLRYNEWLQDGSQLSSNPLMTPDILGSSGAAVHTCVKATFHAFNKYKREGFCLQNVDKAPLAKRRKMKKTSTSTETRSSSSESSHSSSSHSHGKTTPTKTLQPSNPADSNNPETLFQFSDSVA
Effect on: enzyme activity
Action: inhibitor
Tested at: 0.5 µM
Relative to: control
SMILES	remaining activity
NCCNc1ncc(C(N)=O)c(Nc2cccc(C(F)(F)F)c2)n1	103%
Nc1[nH]nc2nc3ccccc3nc12	92.4%
COc1cc2ncnc(Nc3ccc(F)c(Cl)c3)c2cc1OCCCN1CCOCC1	100%
C#Cc1cccc(Nc2ncnc3cc(OCCOC)c(OCCOC)cc23)c1	96.8%
COc1ccc(CNC(=O)Nc2ncc([N+](=O)[O-])s2)cc1	99.5%
Cc1ccc(Nc2nccc(N(C)c3ccc4c(C)n(C)nc4c3)n2)cc1S(N)(=O)=O	101%
COc1ccc(C(=O)Nc2sc3c(c2C(N)=O)CCCC3)cc1OC	106%
O=C1NC(=O)C(c2cn(CCCn3ccnc3)c3ccccc23)=C1Nc1ccccc1	36.9%
O=C(Nc1cccc(Nc2cc(Nc3cccc(C(F)(F)F)c3)ncn2)c1)C1CC1	103%
OCC(O)CCON=C1C(c2c(O)[nH]c3ccccc23)=Nc2ccccc21 (stereo not shown)	37.5%
CC(C)[C@H](CO)Nc1nc(Nc2cc(N)cc(Cl)c2)c2ncn(C(C)C)c2n1	103%
CO[C@H]1C[C@@H]2CC[C@@H](C)[C@@](O)(O2)C(=O)C(=O)N2CCCC[C@H]2C(=O)O[C@H]([C@H](C)C[C@@H]2CC[C@@H](O)[C@H](OC)C2)CC(=O)[C@H](C)/C=C(\C)[C@@H](O)[C@@H](OC)C(=O)[C@H](C)C[C@H](C)/C=C/C=C/C=C/1C	106%
COc1ccc(OC)c2c(=S)c3ccccc3[nH]c12	86%
COc1cc2nccc(Oc3ccc(NC(=S)NC(=O)c4ccccc4C)cc3)c2cc1OC	95.3%
Cn1sc(=O)n(Cc2ccccc2)c1=O	108%

Block 2
Structure (SMILES): CN(C(=O)c1ccccc1)c1cc(N(C)c2ccc3c(c2)CCc2ccc(C(=O)NCCN4CCOCC4)cc2C3=O)ccc1F
Effect on: cell-free assay
Method: competition with immobilised ligand
Tested at: 1 µM
target	remaining binding
Tyrosine-protein kinase receptor TYRO3 (TYRO3, Homo sapiens, UniProt Q06418)	100%
Serine/threonine-protein kinase B-raf (BRAF, Homo sapiens, UniProt P15056)	59%
Tyrosine-protein kinase ABL1, non-phosphorylated (ABL1, Homo sapiens, UniProt P00519, T315I)	88%
Ribosomal protein S6 kinase alpha-5, C-terminal kinase domain (RPS6KA5, Homo sapiens, UniProt O75582)	100%
Death-associated protein kinase 2 (DAPK2, Homo sapiens, UniProt Q9UIK4)	86%
Receptor-type tyrosine-protein kinase FLT3 (FLT3, Homo sapiens, UniProt P36888, R834Q)	85%
Epidermal growth factor receptor (EGFR, Homo sapiens, UniProt P00533, G719C)	85%
Phosphatidylinositol 4,5-bisphosphate 3-kinase catalytic subunit alpha isoform (PIK3CA, Homo sapiens, UniProt P42336, H1047L)	73%

Block 3
Target: Beta-1 adrenergic receptor (ADRB1, Homo sapiens, UniProt P08588)
Sequence of UniProt P08588 (whole entry, looked up): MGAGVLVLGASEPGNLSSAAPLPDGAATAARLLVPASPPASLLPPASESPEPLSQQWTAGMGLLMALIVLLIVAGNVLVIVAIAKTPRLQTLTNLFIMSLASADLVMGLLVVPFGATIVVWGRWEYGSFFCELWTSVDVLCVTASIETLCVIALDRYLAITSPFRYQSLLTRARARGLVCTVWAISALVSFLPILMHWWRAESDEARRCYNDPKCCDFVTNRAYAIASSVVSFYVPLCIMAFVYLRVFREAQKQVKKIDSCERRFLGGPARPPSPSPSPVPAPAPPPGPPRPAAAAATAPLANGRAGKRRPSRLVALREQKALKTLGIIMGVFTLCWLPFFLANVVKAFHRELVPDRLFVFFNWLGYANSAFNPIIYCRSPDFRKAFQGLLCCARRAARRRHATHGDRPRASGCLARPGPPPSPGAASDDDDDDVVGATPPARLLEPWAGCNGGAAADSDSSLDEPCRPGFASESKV
Action: agonist
Structure (SMILES)	EC50 [µM]
COCCN1CCOc2nc(-c3cccc(N(C)C)c3)ncc2C1=O	≥ 100
Cc1ccc(-c2cc(C(=O)Nc3nnc(C)s3)c3ccccc3n2)s1	≥ 100
OC(c1ccccc1)c1cn(C2CCN(Cc3cnc4ccccc4c3)CC2)nn1 (stereo not shown)	≥ 100
c1ccc(-c2n[nH]cc2-c2ccnc3ccccc23)nc1	≥ 100
O=S(=O)(O)c1cc(I)c(O)c2ncccc12	≥ 100
CS(=O)(=O)N(CC(O)Cn1c2ccccc2c2ccccc21)c1ccc(F)cc1 (stereo not shown)	≥ 100
c1cc(-c2cc3c(ccn3Cc3ccncc3)c(N3CCOCC3)n2)c2[nH]ncc2c1	≥ 100
CCCCCCCCN[C@H](C)[C@@H](O)c1ccc(SC(C)C)cc1	≥ 100

Block 4
Cell line: mouse MPNST tumor cells
Method: high-content nuclear imaging
Measured: cell number
Tested at: 10 µM
Time: 12 h
Setting: mean of 2 replicates
Relative to: plate mean
Direction: higher = more cells
Compound	nuclei count
CCc1ccc2c(-c3cccc(Cl)c3)nc(=O)n(CC)c2n1	1.87 z-score
Cc1cnc(-c2cc(N3CCN(C(=O)CCS(C)(=O)=O)CC3)ncc2Cl)c(C)c1	0.546 z-score
COc1cc2ncn(-c3cc(OCc4ccccc4S(C)(=O)=O)c(C#N)s3)c2cc1OC	4.28 z-score
CCC(=N\O)/C(C)=C/c1ccc(F)cc1	0.228 z-score
c1ccc(N2CCN(CCCOc3ccc4c(c3)OCO4)CC2)cc1	-0.817 z-score
COC(=O)c1cc2c(C(F)(F)F)cc(-c3ccccc3)cc2n1O	0.512 z-score
CC(CCc1ccc(O)cc1)NCCc1ccc(O)c(O)c1 (stereo not shown)	2.7 z-score and 2.07 z-score
CC1(C)C(=O)C(C)(C)c2cc(C(=O)Nc3ccc(C(=O)O)cc3)ccc21	-0.284 z-score
Oc1c(CN2CCN(c3ccccn3)CC2)cc(Cl)c2cccnc12	-5.47 z-score

Some of these lines once more (block 1):
SMILES	remaining activity
COc1ccc(CNC(=O)Nc2ncc([N+](=O)[O-])s2)cc1	99.5%
Cc1ccc(Nc2nccc(N(C)c3ccc4c(C)n(C)nc4c3)n2)cc1S(N)(=O)=O	101%
COc1ccc(C(=O)Nc2sc3c(c2C(N)=O)CCCC3)cc1OC	106%
